Results pooled from the literature.
Compare with care: the assays were run in different laboratories. Values joined by “and” are separate records of one study, mostly repeats; a detail may differ. Numbers after ± are the reported error.
HDAC11: Histone deacetylase 11 (HDAC11, Homo sapiens, UniProt Q96DB2)
UniProt Q96DB2, sequence (whole entry, looked up): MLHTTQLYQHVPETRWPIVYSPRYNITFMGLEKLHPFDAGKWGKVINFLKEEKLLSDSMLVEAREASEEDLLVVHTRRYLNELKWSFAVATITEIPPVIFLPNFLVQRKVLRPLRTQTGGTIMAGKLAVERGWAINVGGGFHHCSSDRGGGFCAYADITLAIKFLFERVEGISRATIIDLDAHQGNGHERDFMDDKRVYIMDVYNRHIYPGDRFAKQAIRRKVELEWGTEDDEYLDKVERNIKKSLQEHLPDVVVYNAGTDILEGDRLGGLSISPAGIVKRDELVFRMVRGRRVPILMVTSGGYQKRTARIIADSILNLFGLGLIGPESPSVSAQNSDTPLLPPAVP
DRD4: D(4) dopamine receptor (DRD4, Homo sapiens, UniProt P21917)
UniProt P21917, sequence (whole entry, looked up): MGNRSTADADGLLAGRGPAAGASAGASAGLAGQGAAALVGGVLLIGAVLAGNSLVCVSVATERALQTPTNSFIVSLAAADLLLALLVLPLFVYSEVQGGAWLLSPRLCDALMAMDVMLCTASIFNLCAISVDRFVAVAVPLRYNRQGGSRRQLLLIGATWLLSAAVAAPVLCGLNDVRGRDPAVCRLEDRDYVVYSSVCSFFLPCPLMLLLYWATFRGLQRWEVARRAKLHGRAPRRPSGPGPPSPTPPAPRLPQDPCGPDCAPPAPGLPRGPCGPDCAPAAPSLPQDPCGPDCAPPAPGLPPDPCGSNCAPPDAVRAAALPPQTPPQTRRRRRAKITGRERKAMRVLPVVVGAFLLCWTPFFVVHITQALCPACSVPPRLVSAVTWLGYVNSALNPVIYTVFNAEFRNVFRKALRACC
TLR2: Toll-like receptor 2 (TLR2, Homo sapiens, UniProt O60603)
AMY2: Pancreatic alpha-amylase (AMY2, Sus scrofa, UniProt P00690)
UniProt P00690, sequence (whole entry, looked up): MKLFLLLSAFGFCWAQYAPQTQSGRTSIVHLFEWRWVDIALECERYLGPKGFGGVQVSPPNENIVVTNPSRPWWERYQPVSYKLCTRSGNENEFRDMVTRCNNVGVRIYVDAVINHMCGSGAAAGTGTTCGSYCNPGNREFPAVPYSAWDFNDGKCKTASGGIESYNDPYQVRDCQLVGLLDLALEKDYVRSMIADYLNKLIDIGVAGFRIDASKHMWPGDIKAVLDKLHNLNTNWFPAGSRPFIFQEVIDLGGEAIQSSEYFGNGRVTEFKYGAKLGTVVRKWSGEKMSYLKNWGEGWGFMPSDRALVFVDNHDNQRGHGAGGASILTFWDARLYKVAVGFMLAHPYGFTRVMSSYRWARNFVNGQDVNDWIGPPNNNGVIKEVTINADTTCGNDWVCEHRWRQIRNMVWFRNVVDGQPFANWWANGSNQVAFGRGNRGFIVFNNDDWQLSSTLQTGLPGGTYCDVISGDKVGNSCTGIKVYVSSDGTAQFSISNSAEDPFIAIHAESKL
HTR2B: 5-hydroxytryptamine receptor 2B (HTR2B, Homo sapiens, UniProt P41595)
HTR5A: 5-hydroxytryptamine receptor 5A (HTR5A, Homo sapiens, UniProt P47898)
UniProt P47898, sequence (whole entry, looked up): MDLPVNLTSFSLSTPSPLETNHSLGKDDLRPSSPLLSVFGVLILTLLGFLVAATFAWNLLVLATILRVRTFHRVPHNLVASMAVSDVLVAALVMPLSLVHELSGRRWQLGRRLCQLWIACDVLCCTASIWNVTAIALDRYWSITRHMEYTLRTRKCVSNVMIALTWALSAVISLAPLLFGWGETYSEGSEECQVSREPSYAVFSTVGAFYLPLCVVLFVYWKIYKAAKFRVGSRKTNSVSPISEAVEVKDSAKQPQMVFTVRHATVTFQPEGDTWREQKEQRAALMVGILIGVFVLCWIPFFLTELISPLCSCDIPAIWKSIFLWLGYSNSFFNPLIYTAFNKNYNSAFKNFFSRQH
SCN5A: Sodium channel protein type 5 subunit alpha (SCN5A, Homo sapiens, UniProt Q14524)
UniProt Q96S37, sequence (whole entry, looked up): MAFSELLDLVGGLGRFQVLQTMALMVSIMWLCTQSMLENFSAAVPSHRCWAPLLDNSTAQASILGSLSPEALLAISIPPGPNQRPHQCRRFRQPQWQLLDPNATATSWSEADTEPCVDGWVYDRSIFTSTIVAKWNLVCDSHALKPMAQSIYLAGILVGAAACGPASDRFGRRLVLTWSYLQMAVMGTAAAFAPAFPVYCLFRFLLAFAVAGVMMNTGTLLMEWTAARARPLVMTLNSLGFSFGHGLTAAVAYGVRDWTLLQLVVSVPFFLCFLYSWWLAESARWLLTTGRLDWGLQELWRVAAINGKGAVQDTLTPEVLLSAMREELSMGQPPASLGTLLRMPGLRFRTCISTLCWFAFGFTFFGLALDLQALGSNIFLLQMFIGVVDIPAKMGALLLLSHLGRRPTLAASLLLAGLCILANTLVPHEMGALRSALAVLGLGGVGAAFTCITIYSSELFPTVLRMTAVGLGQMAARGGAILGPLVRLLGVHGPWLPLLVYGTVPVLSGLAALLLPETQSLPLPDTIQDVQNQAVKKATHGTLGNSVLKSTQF
UniProt Q14524, sequence (whole entry, looked up): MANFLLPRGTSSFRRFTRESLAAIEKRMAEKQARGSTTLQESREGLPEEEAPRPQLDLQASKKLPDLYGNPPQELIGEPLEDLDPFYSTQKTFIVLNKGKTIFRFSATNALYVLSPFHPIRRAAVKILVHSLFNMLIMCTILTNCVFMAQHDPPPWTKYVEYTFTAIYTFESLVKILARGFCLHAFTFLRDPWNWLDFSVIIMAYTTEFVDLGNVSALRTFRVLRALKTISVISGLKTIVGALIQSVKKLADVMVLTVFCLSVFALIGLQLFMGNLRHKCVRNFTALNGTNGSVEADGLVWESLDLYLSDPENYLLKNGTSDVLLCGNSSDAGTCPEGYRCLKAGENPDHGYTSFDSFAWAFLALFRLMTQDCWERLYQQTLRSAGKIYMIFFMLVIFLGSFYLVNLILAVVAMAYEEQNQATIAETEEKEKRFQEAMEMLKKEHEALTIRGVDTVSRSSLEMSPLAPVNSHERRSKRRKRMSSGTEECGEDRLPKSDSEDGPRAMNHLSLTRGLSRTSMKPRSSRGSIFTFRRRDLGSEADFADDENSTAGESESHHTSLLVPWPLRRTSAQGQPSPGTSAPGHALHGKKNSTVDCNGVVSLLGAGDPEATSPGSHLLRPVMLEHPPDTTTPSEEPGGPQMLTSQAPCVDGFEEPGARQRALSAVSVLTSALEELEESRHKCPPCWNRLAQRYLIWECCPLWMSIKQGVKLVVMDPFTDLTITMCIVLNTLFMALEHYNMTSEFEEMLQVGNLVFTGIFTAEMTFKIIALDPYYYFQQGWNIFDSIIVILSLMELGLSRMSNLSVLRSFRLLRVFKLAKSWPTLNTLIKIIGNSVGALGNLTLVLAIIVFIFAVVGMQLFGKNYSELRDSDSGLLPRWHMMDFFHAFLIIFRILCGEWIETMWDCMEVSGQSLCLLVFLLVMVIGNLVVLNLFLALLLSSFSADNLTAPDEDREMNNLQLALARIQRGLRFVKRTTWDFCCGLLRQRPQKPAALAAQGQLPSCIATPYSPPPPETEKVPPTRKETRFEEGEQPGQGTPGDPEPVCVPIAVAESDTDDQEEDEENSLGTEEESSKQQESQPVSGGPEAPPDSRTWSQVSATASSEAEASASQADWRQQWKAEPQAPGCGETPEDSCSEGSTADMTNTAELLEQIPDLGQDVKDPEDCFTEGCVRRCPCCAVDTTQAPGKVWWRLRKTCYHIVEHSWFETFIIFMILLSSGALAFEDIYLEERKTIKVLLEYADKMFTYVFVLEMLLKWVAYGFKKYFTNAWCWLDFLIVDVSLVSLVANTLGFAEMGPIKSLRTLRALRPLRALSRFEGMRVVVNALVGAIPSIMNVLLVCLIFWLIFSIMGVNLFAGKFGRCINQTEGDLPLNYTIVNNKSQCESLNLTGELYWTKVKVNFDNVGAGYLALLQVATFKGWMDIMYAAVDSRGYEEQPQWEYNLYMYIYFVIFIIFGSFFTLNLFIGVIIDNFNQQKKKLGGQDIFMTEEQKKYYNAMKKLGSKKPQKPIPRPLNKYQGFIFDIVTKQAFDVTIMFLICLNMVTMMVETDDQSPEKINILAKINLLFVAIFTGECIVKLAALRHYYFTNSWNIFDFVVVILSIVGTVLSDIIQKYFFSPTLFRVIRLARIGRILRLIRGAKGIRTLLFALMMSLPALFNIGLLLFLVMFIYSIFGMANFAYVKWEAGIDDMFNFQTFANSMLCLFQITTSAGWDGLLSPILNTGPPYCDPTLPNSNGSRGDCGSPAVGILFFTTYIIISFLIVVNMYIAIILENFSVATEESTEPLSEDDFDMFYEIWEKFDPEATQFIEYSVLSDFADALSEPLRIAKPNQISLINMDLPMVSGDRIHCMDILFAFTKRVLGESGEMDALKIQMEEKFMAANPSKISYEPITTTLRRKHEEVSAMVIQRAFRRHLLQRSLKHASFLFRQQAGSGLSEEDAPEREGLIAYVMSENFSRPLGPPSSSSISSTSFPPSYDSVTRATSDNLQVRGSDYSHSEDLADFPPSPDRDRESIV
UniProt P22001, sequence (whole entry, looked up): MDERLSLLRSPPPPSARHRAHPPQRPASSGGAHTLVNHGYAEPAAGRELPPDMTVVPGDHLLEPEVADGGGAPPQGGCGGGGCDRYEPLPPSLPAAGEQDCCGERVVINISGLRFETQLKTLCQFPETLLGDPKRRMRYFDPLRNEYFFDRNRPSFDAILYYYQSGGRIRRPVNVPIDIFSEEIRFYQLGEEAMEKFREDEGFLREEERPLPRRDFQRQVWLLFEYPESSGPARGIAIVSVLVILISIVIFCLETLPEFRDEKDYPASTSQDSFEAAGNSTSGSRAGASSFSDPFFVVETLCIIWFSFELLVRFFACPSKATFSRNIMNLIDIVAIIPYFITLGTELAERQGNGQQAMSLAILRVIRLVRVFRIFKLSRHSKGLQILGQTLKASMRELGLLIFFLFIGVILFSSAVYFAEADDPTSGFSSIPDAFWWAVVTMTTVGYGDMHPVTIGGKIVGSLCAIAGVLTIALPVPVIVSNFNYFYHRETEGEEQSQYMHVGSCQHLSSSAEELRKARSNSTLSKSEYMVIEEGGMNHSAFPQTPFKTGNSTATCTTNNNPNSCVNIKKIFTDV

`CCCCCCCCCCC[C@@H](C[C@@H]1OC(=O)[C@H]1CCCCCC)OC(=O)[C@H](CC(C)C)NC=O` gave an inhibition of 100% (Pancreatic triacylglycerol lipase (PNLIP, Sus scrofa, UniProt P00591); enzyme activity; porcine; 100 µg/mL, together with: 4-MUO).
The inhibition of `O=C(NO)c1cccc(OS(=O)(=O)Oc2ccc(-n3cccc3)cc2)c1` is reported as 21% (HDAC11; 10 µM).
`O=C(CN1CCO[C@H](COc2cccnc2)C1)N1CCc2ccccc21` gave an inhibition of 28.1% (DRD4; radioligand binding; concentration not given, together with: [3H]N-methylspiperone).
`COc1cc(C(=O)NS(=O)(=O)c2ccccc2C)ccc1Cc1cn(C)c2ccc(NC(=O)OC3CCCC3)cc12` has an inhibition of 88.9% and 93.4% and 97% and 97.9% and 94.3% (Volume-regulated anion channel subunit LRRC8C, part LRRC8A IL1 chimera (LRRC8C, Homo sapiens, UniProt Q8TDW0, L136K); ion current, inhibitor, whole-cell patch clamp; HCT LRRC8-/- cells; 10 µM, +100 mV).
The inhibition of `C=C1CC[C@@H]2[C@](C)(CO)[C@H](O)CC[C@@]2(C)[C@@H]1C/C=C1/C(=O)OC[C@H]1O` is reported as greater than 90% (TLR2; SEAP reporter gene, antagonist; HEK-Blue hTLR2; 10 µM, together with: Pam3CSK4).
For `O=C1C[C@@H](c2ccc(O)cc2)Oc2c(Br)c(O)c(Br)c(O)c21`, the inhibition was 49.5 ± 4% (AMY2; enzyme activity, inhibitor; 50 µM, together with: CNP-G3 substrate).
The inhibition of `O=C(NO)c1cc(F)cc(OS(=O)(=O)Oc2ccccc2)c1` is reported as 30% (HDAC11; 10 µM).
The inhibition of `COc1cccc(OC[C@@H]2CN(CC(=O)N3CCc4ccccc43)CCO2)c1` is reported as 41.9% (DRD4; radioligand binding; concentration not given, together with: [3H]N-methylspiperone).
With `CCN(CC)c1ccc(C2Nc3ccc(C(=O)c4ccccc4)cc3NC3=C2C(=O)CC(C)(C)C3)cc1` (stereo not drawn) the inhibition was 12% (sigma 2 receptor; binding; 10 µM).
`CC[C@@H]1[C@H](F)C(=O)N[C@@H]1COc1nccc2cc(C(N)=O)c(OC)cc12` gave an inhibition of -0.0196% (Protein kinase C iota type (PRKCI, Homo sapiens, UniProt P41743); ATP probe binding, KiNativ profiling, refers to: Lys2 probe site; THP-1 cell lysate; 0.2 mM).
`C[C@H](CCC(=O)O)[C@H]1CC[C@H]2[C@@H]3C(=O)C[C@@H]4CC(=O)CC[C@]4(C)[C@H]3CC(=O)[C@]12C` has an inhibition of greater than 90% (TLR2; SEAP reporter gene, antagonist; HEK-Blue hTLR2; 10 µM, together with: Pam3CSK4).
`O=C(NO)c1cccc(OS(=O)(=O)Oc2ccc(-c3ccc(C(F)(F)F)cc3)cc2)c1` gave an inhibition of 52% (HDAC11; 10 µM).
The inhibition of `CCc1oc2ccccc2c1C(=O)c1cc(Br)c(O)c(Br)c1` is reported as 63.1% and 65.9% and 66.1% and 73.7% and 69.1% and 69.6% and 61.9% (Solute carrier family 22 member 12 (SLC22A12, Homo sapiens, UniProt Q96S37); urate uptake; HEK-293T; 0.5 µM, 10 min, 37 °C, together with: [14C]urate 200 µM).
`Clc1cncc(OC[C@@H]2CN(CCN3CCc4ccccc43)CCO2)c1` has an inhibition of 36.1% (HTR2B; radioligand binding; concentration not given, together with: [3H]LSD).
`O=C(Nc1cccc2c(=O)cc(-c3nnn[nH]3)oc12)c1ccc(OCCCCc2ccccc2)cc1` gave an inhibition of 89.3% and 87.6% and 93.1% and 94.1% (Volume-regulated anion channel subunit LRRC8C, part LRRC8A IL1 chimera (LRRC8C, Homo sapiens, UniProt Q8TDW0, Y126F); ion current, inhibitor, whole-cell patch clamp; HCT LRRC8-/- cells; 3 µM, +100 mV).
For `Cc1nn(-c2nc3c(F)cc(F)cc3s2)c(O)c1C(c1ccccc1C(=O)O)c1c(C)nn(-c2nc3c(F)cc(F)cc3s2)c1O`, the inhibition was 99.6% (Cyclic GMP-AMP synthase, catalytic domain; with DNA (CGAS, Homo sapiens, UniProt Q8N884); cGAS phase separation, inhibitor; 5 µM).
`O=c1cc(-c2ccccc2)oc2cc(O)cc(O)c12` has an inhibition of 22.6 ± 0.37% (AMY2; enzyme activity, inhibitor; 50 µM, together with: CNP-G3 substrate).
With `NC(=O)c1ncn([C@@H]2O[C@H](CO[P@@](=O)(O)O[P@](=O)(O)OP(=O)(O)O)[C@@H](O)[C@H]2O)n1` the inhibition was 6.92% (Non-structural polyprotein pORF1, helicase domain (Hepatitis E virus genotype 1, UniProt P33424); ATPase activity, inhibitor, colorimetric; 28 µM, together with: ATP 100 µM).
For `Cc1cc(OS(=O)(=O)Oc2ccc(-n3ccnc3)cc2)cc(C(=O)NO)c1`, the inhibition was 57% (HDAC11; 10 µM).
`CC1=C(C(=O)OC(C)C)C(c2ccccc2Br)C2=C(CC(C)(C)CC2=O)N1` (stereo not drawn) — result for inhibition: “no inhibition” (β2 adrenergic receptor; GTPγS binding; 20 µM, together with: isoproterenol 10 µM).
For `CC(C)c1noc2ncc(C(=O)c3ccccc3O)cc12`, the inhibition was 10.3% and 12% and 15.6% and 13% and 3.21% (Potassium voltage-gated channel subfamily A member 3 (KCNA3, Homo sapiens, UniProt P22001); ion current, inhibitor, whole-cell patch clamp; 10 µM).
`O=C(CN1CCO[C@H](COc2cccc(Cl)c2)C1)N1CCc2ccccc21` has an inhibition of 2% (HTR5A; radioligand binding; concentration not given, together with: [3H]LSD).
With `Cc1cc(=O)oc2ccc(-c3cc(-c4cccc(Cl)c4)nc(N)n3)c(O)c12` the inhibition was 87.5 ± 1.23% (AMY2; enzyme activity, inhibitor; concentration not given).
For `Cc1nc2sccn2c(=O)c1CCN1CCC(=C(c2ccc(F)cc2)c2ccc(F)cc2)CC1`, the inhibition was roughly 63% (Diacylglycerol kinase gamma (Dgkg, Rattus norvegicus, UniProt P49620); enzyme activity, DAG kinase; HEK293T lysate overexpressing; 50 µM, together with: [γ32P]-ATP; relative to: DMSO control).
`O=C(NO)c1ccc(CN2CCCCc3ccccc32)c(F)c1` has an inhibition of -7.97% (DRD4; radioligand binding, radioligand displacement; 10 µM).
`Cc1ncccc1OC[C@@H]1CN(CCN2CCc3ccccc32)CCO1` gave an inhibition of -13% (HTR5A; radioligand binding; concentration not given, together with: [3H]LSD).
For `COc1ccc(S(=O)(=O)ON=C2C=C(C)C(=O)C(C)=C2)cc1`, inhibition read “no inhibition” (HDAC11; enzyme activity, inhibitor; concentration not given).
`COc1cc(-c2cc(-c3ccc(N4CCNCC4)cc3)cnc2C)cc(OC)c1OC` gave an inhibition of 13% (Ribosomal protein S6 kinase beta-2 (RPS6KB2, Homo sapiens, UniProt Q9UBS0); kinome profiling; 1 µM).
`CN1CCN(c2cc(-c3ccncc3)c(-c3ccc4ccccc4c3)nn2)CC1` gave an inhibition of -2.7% (Gonadotropin-releasing hormone receptor (GNRHR, Homo sapiens, UniProt P30968); antagonist, FLIPR; 10 µM).
The inhibition of `Cc1ccc(C(=O)Nc2ccc3ccccc3c2)o1` is reported as 14.8% (SCN5A; ion current, whole-cell patch-clamp; 10 µM, hNaV1.5).
`O=C(NO)c1cncc(OS(=O)(=O)Oc2ccc(-n3ccnc3)cc2)c1` gave an inhibition of 8% (HDAC11; 10 µM).
The inhibition of `NC/C(=C\F)COc1cccc(Cn2c(=S)[nH]c(=O)c3[nH]cnc32)c1` is reported as 9.6% and 17.6% (SCN5A; peak current, inhibitor, patch clamp; human cells; 10 µM, pulse 9).
`COc1cc(Cl)c(C(=O)N[C@@H](CN[C@H]2CC[C@@H](N)CC2)Cc2ccc(C#N)cc2)cc1-c1ccc(CN[C@H](C)c2ccc(C)cc2)o1` has an inhibition of 13% (Motilin receptor (MLNR, Homo sapiens, UniProt O43193); agonist response, antagonist; human cells; 10 µM, motilin antagonist).
`CN1CCC(CNc2ccc3ncc(-c4cccc(OC(F)(F)F)c4)n3n2)CC1` has an inhibition of greater than 50% (SCN5A; membrane potential, blocker; 10 µM; relative to: control).
`CN(C(=O)n1cnc(-c2ccc[n+]([O-])c2)c1)C1CCCCC1` gave an inhibition of 3.29% (DRD4; 10 µM).
With `COc1ccc2c(c1)C(=O)N(CCN1CCN(c3ccccc3OC)CC1)C2` the inhibition was 97.2% (DRD4; radioligand binding; concentration not given, together with: [3H]N-methylspiperone).
For `C#Cc1cc(-c2cc(Nc3nc(N[C@@H](C)c4ccc(F)cn4)ncc3Cl)n[nH]2)ccc1C=O`, the inhibition was 56.7% (cAMP-dependent protein kinase catalytic subunit PRKX (PRKX, Homo sapiens, UniProt P51817); enzyme activity, inhibitor; 0.2 µM).
With `Cc1cc(C(C)(C)C)ccc1OS(=O)(=O)Oc1cc(F)cc(C(=O)NO)c1` the inhibition was 53% (HDAC11; 10 µM).
`Cc1cc2c(cc1N1C(=O)c3cccc4c(CCCO)ccc(c34)C1=O)n(C)c(=O)n2C` (racemic) has an inhibition of 81% (Protein polybromo-1, BD5 (PBRM1, Homo sapiens, UniProt Q86U86); binding, BROMOscan binding; 100 nM).
`Cc1cc(-c2ccnc3[nH]cc(F)c23)cc(F)c1[C@@]1(O)[C@H](C)CN(C2CCS(=O)(=O)CC2)C[C@@H]1C` has an inhibition of 5.7% (AMPK alpha1 and alpha2; ATP probe binding, KiNativ, refers to: Lys1 site; HEK293T cell lysate; 0.1 µM).
The inhibition of `COc1cc2c(cc1OC)C(=O)N(CCCCN1CCN(c3ccccc3OC)CC1)C2` is reported as 95.6% (HTR2B; radioligand binding; concentration not given, together with: [3H]LSD).
With `CCS(=O)(=O)c1nc(S(=O)(=O)c2ccccc2Cl)c(N2CCN(C)C(=O)[C@H]2C)s1` the inhibition was 4.92% (Alpha-1A adrenergic receptor (ADRA1A, Homo sapiens, UniProt P35348); 10 µM).
The inhibition of `Cc1cc(-c2ccnc3[nH]cc(F)c23)cc(F)c1[C@@]1(O)[C@H](C)CN(C(=O)CN)C[C@@H]1C` is reported as 73.2% (AMPK alpha1 and alpha2; ATP probe binding, KiNativ, refers to: Lys1 site; HEK293T cell lysate; 10 µM).
The inhibition of `O=C(CN1CCO[C@H](COc2ccccc2)C1)N1CCc2ccccc21` is reported as 40.5% (HTR5A; radioligand binding; concentration not given, together with: [3H]LSD).
With `O=c1c(O)c(-c2ccc(O)cc2)oc2cc(O)cc(O)c12` the inhibition was 87.3 ± 2.31% (AMY2; enzyme activity, inhibitor; 50 µM, together with: CNP-G3 substrate).

For quick reference, copied from above:
`CN(C(=O)n1cnc(-c2ccc[n+]([O-])c2)c1)C1CCCCC1` gave an inhibition of 3.29% (DRD4; 10 µM).
`CC[C@@H]1[C@H](F)C(=O)N[C@@H]1COc1nccc2cc(C(N)=O)c(OC)cc12` gave an inhibition of -0.0196% (Protein kinase C iota type (PRKCI, Homo sapiens, UniProt P41743); ATP probe binding, KiNativ profiling, refers to: Lys2 probe site; THP-1 cell lysate; 0.2 mM).
`O=C(CN1CCO[C@H](COc2cccc(Cl)c2)C1)N1CCc2ccccc21` has an inhibition of 2% (HTR5A; radioligand binding; concentration not given, together with: [3H]LSD).
